Experimental data collected from several papers.
Lines come from different studies, so protocols differ. ± gives the spread as reported.
U2AF2: U2AF2 148-342 (Homo sapiens, UniProt P26368)
B1: enzyme (Talaromyces verruculosus, UniProt A0A348FUE1); chain MSPMDLQESAAALVRQLGERVEDRRGFGFMSPAIYDTAWVSMISKTIDDQKTWLFAECFQYILSHQLEDGGWAMYASEIDAILNTSASLLSLKRHLSNPYQITSITQEDLSARINRAQNALQKLLNEWNVDSTLHVGFEILVPALLRYLEDEGIAFAFSGRERLLEIEKQKLSKFKAQYLYLPIKVTALHSLEAFIGAIEFDKVSHHKVSGAFMASPSSTAAYMMHATQWDDECEDYLRHVIAHASGKGSGGVPSAFPSTIFESVWPLSTLLKVGYDLNSAPFIEKIRSYLHDAYIAEKGILGFTPFVGADADDTATTILVLNLLNQPVSVDAMLKEFEEEHHFKTYSQERNPSFSANCNVLLALLYSQEPSLYSAQIEKAIRFLYKQFTDSEMDVRDKWNLSPYYSWMLMTQAITRLTTLQKTSKLSTLRDDSISKGLISLLFRIASTVVKDQKPGGSWGTRASKEETAYAVLILTYAFYLDEVTESLRHDIKIAIENGCSFLSERTMQSDSEWLWVEKVTYKSEVLSEAYILAALKRAADLPDENAEAAPVINGISTNGFEHTDRINGKLKVNGTNGTNGSHETNGINGTHEIEQINGVNGTNGHSDVPHDTNGWVEEPTAINETNGHYVNGTNHETPLTNGISNGDSVSVHTDHSDSYYQRSDWTADEEQILLGPFDYLESLPGKNMRSQLIQSFNTWLKVPTESLDVIIKVISMLHTASLLIDDIQDQSILRRGQPVAHSIFGTAQAMNSGNYVYFLALREVQKLQNPKAISIYVDSLIDLHRGQGMELFWRDSLMCPTEEQYLDMVANKTGGLFCLAIQLMQAEATIQVDFIPLVRLLGIIFQICDDYLNLKSTAYTDNKGLCEDLTEGKFSFPIIHSIRSNPGNRQLINILKQKPREDDIKRYALSYMESTNSFEYTRGVVRKLKTEAIDTIQGLEKHGLEENIGIRKILARMSLEL
B2: enzyme (Haliscomenobacter hydrossis, UniProt F4KU78); chain MKQKPAFIPYAGAQFEPEEMLSKSAEYYQFMDHRRTVREFSNRAIPLEVIENIVMTASTAPSGAHKQPWTFVVVSDPQIKAKIRQAAEKEEFESYNGRMSNEWLEDLQPFGTDWHKPFLEIAPYLIVVFRKAYDVLPDGTQRKNYYVQESVGIACGFLLAAIHQAGLVALTHTPSPMNFLQKILQRPENERPFLLVPVGYPAEGAMVPDLQRKDKAAVMVVY
B3: enzyme S252E/S281E/S285E/S287E (Schizosaccharomyces pombe, UniProt P78804); chain MSTPYEPEFQQAYKEIVGSIESSKLFEVHPELKRVLPIISIPERVLEFRVTWEDDKGNCRVNTGYRVQFNSALGPYKGGLRFHPSVNLSILKFLGFEQIFKNALTGLPMGGGKGGSDFDPKGKSDNEIRRFSQAFMRQLFRYIGPQTDVPAGDIGVTGFVVMHMFGEYKRLRNEYSGVVTGKHMLTGGSNIRPEATGYGVVYYVKHMIEHRTKGAETLKGKRVAISGSGNVAQYAALKCIQEGAIVKSISDEKGVLIAKTAEGLVPEEIHEIMALKEKRAEIADEAELCKKHHYIAGARPWTNVGEIDIALPCATQNEVSGEEAAALIKQGCRYVAEGSNMGSSAEAVEVFEKSRASGEGCWLAPGKAANAGGVAVSGLEMAQNAQFSTWTHAEVDAKLAGIMQNIFEQSTDVASKYCDSGSNNIPSLVDGANIAGFLKVATAMQAVGDWW
B4: enzyme (Azotobacter vinelandii, UniProt C1DN94); chain MSESPLRLDRLRDFVSALGELLDRHPDEESVLREGRSLLGELVRHDDWLPEEFAQPDPERYQQYLLHADSRQRFSVVSFVWGPGQTTPVHDHRVWGLIGMLRGAEDAQSFELGAEGLRPIGDPVRLSPGQVEAVSPRIGDIHRVFNASPDQPSISIHVYGANIGAVRRAVYLPDGSEKPFISGYSNQFLPNIWDQSKESARP
B5: enzyme (Populus trichocarpa, UniProt A0A2K2BRQ9); chain MVYQKKIVEEVSGWLRIFDDGWVDRTWIGPPQVKFMAEPVPPHEEFIEGVAIRDVTIDENSGLSVRIYLPQHEPDHYTDNSDKLPLIVHFHGGGFCISQADWYMYYYIYSRLARSAPAIVVSVYLRLAPEHRLPAAIDDGFSALMWLRALAQGQESYEPWLNNHGDFNRVFLIGDSSGGNLVHHVAARAGQVDLSPMRLAGGIPVHPGFVRSERSKSEMEQPESPFLTLDMVDRFLKLALPKGCTKDHPFTCPMGHAAPPLDSLNLPPFLLCVAEADLIRDTEMEYYEAMKKANKDVELLINPGVGHSFYLNKIAVDMDPHTAAQTTGLLEGIVEFIKKH
B6: proA (Escherichia coli, UniProt P07004); chain MLEQMGIAAKQASYKLAQLSSREKNRVLEKIADELEAQSEIILNANAQDVADARANGLSEAMLDRLALTPARLKGIADDVRQVCNLADPVGQVIDGGVLDSGLRLERRRVPLGVIGVIYEARPNVTVDVASLCLKTGNAVILRGGKETCRTNAATVAVIQDALKSCGLPAGAVQAIDNPDRALVSEMLRMDKYIDMLIPRGGAGLHKLCREQSTIPVITGGIGVCHIYVDESVEIAEALKVIVNAKTQRPSTCNTVETLLVNKNIADSFLPALSKQMAESGVTLHADAAALAQLQAGPAKVVAVKAEEYDDEFLSLDLNVKIVSDLDDAIAHIREHGTQHSDAILTRDMRNAQRFVNEVDSSAVYVNASTRFTDGGQFGLGAEVAVSTQKLHARGPMGLEALTTYKWIGIGDYTIRA
B7: SABP2 (Nicotiana tabacum, UniProt Q6RYA0); chain MKEGKHFVLVHGACHGGWSWYKLKPLLEAAGHKVTALDLAASGTDLRKIEELRTLYDYTLPLMELMESLSADEKVILVGHSLGGMNLGLAMEKYPQKIYAAVFLAAFMPDSVHNSSFVLEQYNERTPAENWLDTQFLPYGSPEEPLTSMFFGPKFLAHKLYQLCSPEDLALASSLVRPSSLFMEDLSKAKYFTDERFGSVKRVYIVCTEDKGIPEEFQRWQIDNIGVTEAIEIKGADHMAMLCEPQKLCASLLEIAHKYN
B8: human thioredoxin; sequence looked up; chain VKQIESKTAFQEALDAAGDKLVVVDFSATWCGPCKMIKPFFHSLSEKYSNVIFLEVDVDDCQDVASECEVKCMPTFQFFKKGQKVGEFSGANKEKLEATINELV

`enzyme (Salmonella enterica, UniProt P0A2K1)` has a kcat/Km of 1950 M⁻¹ s⁻¹ (N[C@@H](CO)C(=O)O; steady-state kinetics; pH 7.8, 22 °C, apparent).
For `B1 (enzyme)`, the kcat/Km was 550 ± 30 M⁻¹ s⁻¹ (CC(C)=CCOP(=O)(O)OP(=O)(O)O; steady-state kinetics; pH 7.5, apparent, together with: 150 µM IPP).
With `enzyme (UniProt A0A063Y6V3)` the kcat/Km was 10800 M⁻¹ s⁻¹ (NC(=O)C1=CN([C@@H]2O[C@H](COP(=O)(O)OP(=O)(O)OC[C@H]3O[C@@H](n4cnc5c(N)ncnc54)[C@H](OP(=O)(O)O)[C@@H]3O)[C@@H](O)[C@H]2O)C=CC1; steady-state kinetics; pH 7, 30 °C, cofactor varied).
`TGCATAAGATTTGGTCCAGTACTCGCAGGAAATGGTCAAGTCAATCGGTCC (dsDNA; 5'-amino-C6 primer)` has a Kd of 0.0256 ± 0.0018 µM (SPT15 full length assumed (Saccharomyces cerevisiae, UniProt P13393); array; double-stranded DNA, one strand shown; TBP alone).
For `B2 (enzyme)`, the kcat/Km was 20000 ± 2000 M⁻¹ s⁻¹ (N[C@@H](Cc1ccc(O)c(I)c1)C(=O)O; steady-state kinetics; pH 7.4, 25 °C, together with: dithionite).
`enzyme (Sargassum horneri, UniProt A0A097IUG6)` gave a kcat/Km of 280000 M⁻¹ s⁻¹ (Nc1ncnc2c1ncn2[C@@H]1O[C@H](COP(=O)(O)OP(=O)(O)O)[C@@H](O)[C@H]1O; steady-state kinetics; pH 6.5, 25 °C, together with: 16 mM PEP).
For `B3 (enzyme S252E/S281E/S285E/S287E)`, the kcat/Km was 12000 ± 1000 M⁻¹ s⁻¹ (NC(=O)C1=CN([C@@H]2O[C@H](COP(=O)(O)OP(=O)(O)OC[C@H]3O[C@@H](n4cnc5c(N)ncnc54)[C@H](O)[C@@H]3O)[C@@H](O)[C@H]2O)C=CC1; steady-state kinetics; pH 7, 30 °C, apparent).
`B4 (enzyme)` gave a kcat/Km of 110 ± 20 M⁻¹ s⁻¹ (N[C@@H](CS)C(=O)O; steady-state kinetics; pH 8, 25 °C, together with: O2).
For `KEAFWDRCLSVINLMSSKMLQIEA`, the activity change was 63% (Cyclin-dependent kinase 5, with p25 (CDK5, Homo sapiens, UniProt Q00535); phosphotransferase activity, radiometric; peptide; concentration not given, 10% DMSO, together with: histone substrate; reference: p5-WT peptide).
`B5 (enzyme)` gave a kcat/Km of 38000 ± 10400 M⁻¹ s⁻¹ (O=C(OCc1ccccc1)c1ccccc1O; steady-state kinetics; pH 7, 25 °C).
The Kd of `GUAUUGUAG (ssRNA)` is reported as 3.98 µM (U2AF2; sequencing of bound RNA; RNA; motif only).
`acsA (Pseudomonas chlororaphis, UniProt Q5CD72)` has a kcat/Km of 1500 ± 167 M⁻¹ s⁻¹ (CC(=O)O; steady-state kinetics; pH 7).
`putA (Escherichia coli, UniProt P09546)` has a kcat/Km of 8400 ± 1700 M⁻¹ s⁻¹ (CC1=C(C)C(=O)C(C)=C(C)C1=O; steady-state kinetics; pH 7.4, 20 °C, together with: proline 200 mM).
`B6 (proA)` has a kcat/Km of 53000 ± 12000 M⁻¹ s⁻¹ (N[C@@H](CCC=O)C(=O)O; steady-state kinetics; pH 7.6, apparent, together with: 1 mM NADP+).
The Kd of `CUCUUAACA (ssRNA)` is reported as 4.37 µM (U2AF2; sequencing of bound RNA; RNA; motif only).
`B7 (SABP2)` gave a kcat/Km of 1020 M⁻¹ s⁻¹ (CC(=O)Oc1ccc([N+](=O)[O-])cc1; steady-state kinetics; pH 7.2, 22 °C).
With `PYCR2 (Homo sapiens, UniProt Q96C36)` the kcat/Km was 111000 ± 9000 M⁻¹ s⁻¹ (NC(=O)C1=CN([C@@H]2O[C@H](COP(=O)(O)OP(=O)(O)OC[C@H]3O[C@@H](n4cnc5c(N)ncnc54)[C@H](OP(=O)(O)O)[C@@H]3O)[C@@H](O)[C@H]2O)C=CC1; steady-state kinetics; pH 7.5, 37 °C, apparent, cofactor varied, together with: DL-P5C 5000 µM).
`B8 (human thioredoxin)`: “log2 fold change” 1.76 (CYB5R4 knockout human cells; PP4 interaction, 3xFLAG-PP4C IP-MS; concentration not given; reference: CYB5R4 KO over parental).
The kcat/Km of `enzyme (UniProt A0A4R3LQ44)` is reported as 4400 ± 800 M⁻¹ s⁻¹ (O=C(O)[C@H](O)[C@@H](O)[C@@H](O)CO; steady-state kinetics; pH 7.5, 50 °C).

Excerpt of the above:
With `enzyme (UniProt A0A063Y6V3)` the kcat/Km was 10800 M⁻¹ s⁻¹ (NC(=O)C1=CN([C@@H]2O[C@H](COP(=O)(O)OP(=O)(O)OC[C@H]3O[C@@H](n4cnc5c(N)ncnc54)[C@H](OP(=O)(O)O)[C@@H]3O)[C@@H](O)[C@H]2O)C=CC1; steady-state kinetics; pH 7, 30 °C, cofactor varied).
`TGCATAAGATTTGGTCCAGTACTCGCAGGAAATGGTCAAGTCAATCGGTCC (dsDNA; 5'-amino-C6 primer)` has a Kd of 0.0256 ± 0.0018 µM (SPT15 full length assumed (Saccharomyces cerevisiae, UniProt P13393); array; double-stranded DNA, one strand shown; TBP alone).
